# Published values pooled from the literature.
# Each line is one published result; not all experiments were run side by side. ± marks the error that the study gave.
Structure (SMILES),assay,system,setting,scale,quantity,value
Cc1[nH]nc2c1N=C(c1ccccc1Cl)c1cnc(NCC(=O)O)cc1N2,,"human male, urine","oral, 10 mg, 0-72 h",,urinary excretion,0.37 %Dose
NC[C@@H](C(=O)Nc1ccc(-c2cn[nH]c2)cc1)c1ccccc1,"OECD 405, item: Iris",New Zealand White rabbit,"topical, 0.1 %, 24 h, day 2",direction not given,ocular irritation score,0
NS(=O)(=O)c1ccc(N2N=C(C(F)(F)F)CC2c2ccc(F)cc2F)cc1 (stereo not drawn),,"Beagle dog, male, arthritis model, plasma","oral, 4 mg/kg single dose, day 7",,plasma concentration,59 ± 41 ng/mL
[11CH3]c1ccc2nc(C3CCC3)n(-c3ccc4[nH]ncc4c3)c2n1,extrapolated from mouse biodistribution,"human male, osteogenic cells",,,absorbed dose,2.8 µSv/MBq
Brc1ccc(Nc2nc(NN=Cc3c[nH]c4ccccc34)nc(N3CCOCC3)n2)cc1,,human liver microsomes,,,CLint,0 mL/min/g protein
COc1cc(NC(C)=O)c2c(c1O)-c1c(OC)c(OC)cc3c1C(C2)N(C)CC3 (stereo not drawn),,rat heart homogenate,"50 µg/mL, 24 h, room temperature, post-preparative storage",,remaining compound,91.5 ± 2.4%
NC(=O)CN1CCNC(=O)c2cccc(n2)C(=O)NCCN(CC(N)=O)CCN(CC(N)=O)CC1,potentiometric titration,"water, 0.1 M KNO3","25.0 °C, complex species LPb, together with: Pb(NO3)2",,log β (Pb2+ complex stability),9.16
C=C(c1ncc(C(=O)O)cn1)c1cc2c(cc1C)C(C)(C)CCC2(C)C,,"Sprague-Dawley rat, male, plasma","oral, 100 mg/kg, 2 h, sesame oil vehicle",,HDL level,65 ± 13.1 mg/dL
CC(C)(Sc1cc[n+]([O-])cc1-c1ccc(C#N)c2ccccc12)C(=O)OC1OC(C(=O)O)C(O)C(O)C1O (stereo not drawn),,plasma,"oral, 15 mg, mild renal impairment, fasted",,terminal half-life,10.7 h
C=CC(=O)Nc1cc(Nc2nccc(-c3cn(C4CC4)c4ccccc34)n2)c(OC)cc1NC,radiolabelled metabolite profiling,"human male, plasma","oral, 110 mg, 6 h",,plasma concentration,7.61 ng/g
Cc1ccc(CNC(=O)Cc2ccc(-c3ccc(OCCN4CCOCC4)cc3)cn2)cc1,,ICR mouse,"oral, 10 mg/kg",,half-life,327 ± 88.8 min
Cc1ccc(OCC(=O)N(Cc2cccs2)c2ccn[nH]2)cc1,,"male beagle dog, plasma","intravenous, 1 mg/kg, single dose",,AUC(0-t),942 ng·h/mL
OCc1cn(Cc2ccc(-c3noc(-c4ccc(OCC[18F])c(C(F)(F)F)c4)n3)cc2)nn1,,"rat, pancreas","intravenous, 2 h",,tracer uptake,1.45 %ID/g
N=C(N)NCCC[C@@H]1NC(=O)[C@H](Cc2c[nH]c3ccccc23)NC(=O)[C@@H](CC2CCCCC2)NC(=O)[C@@H]2CCCN2C(=O)[C@@H](NC(=O)CCc2ccccc2)CCCNC1=O,,"C57BL/6J mice, brain","oral, 1 mg/kg, two-compartment model",,elimination rate constant,6.94e-05 s⁻¹
COc1cccc(C2CC(c3ccccc3Cl)Nc3nc(N)nn32)c1 (stereo not drawn),,"male CD-1 mouse, plasma","intraperitoneal, 20 mg/kg, 30 min, single dose",,concentration,158 µM
Cn1c(=O)oc2ccc(-c3ccc(CC(C#N)NC(=O)C4CNCCCO4)c(F)c3)cc21 (stereo not drawn),,human,"oral, 40 mg once daily, TEAE, multiple ascending dose",,fibrinogen decreased incidence,11.1%
CC(C)[C@H](NC(=O)CNC(=O)[C@H](CCC(N)=O)NC(=O)[C@H](C)N)C(=O)O,LC-MS/MS,"human, male, plasma","intravenous, 10 mg/kg three times daily, day 1, first dose, 10 min infusion, geometric mean",,half-life,5.4 min
CO[C@H]1/C=C/O[C@@]2(C)Oc3c(C)c(O)c4c(c3C2=O)C2=NC3(CCN(CC(C)C)CC3)NC2=C(NC(=O)/C(C)=C\C=C\[C@H](C)[C@H](O)[C@@H](C)[C@@H](O)[C@@H](C)[C@H](OC(=O)c2cccnc2)[C@@H]1C)C4=O,,CD-1 mouse,"10 mg/kg, single dose",,t1/2,408 min
CCCC[C@H](NC(=O)CNC(=O)CNC(=O)CN1CCN(CC(=O)O)CCN(CC(=O)O)CC1)C(=O)N[C@H]1CC(=O)NCCCC[C@@H](C(N)=O)NC(=O)[C@H](Cc2c[nH]c3ccccc23)NC(=O)[C@H](CCCNC(=N)N)NC(=O)[C@@H](Cc2ccccc2)NC(=O)[C@H](Cc2c[nH]cn2)NC1=O [copper-64 labelled],,"female C57 mouse, B16/F1 melanoma","intravenous, 0.037 MBq, 2 h",reference: tumour over kidneys,uptake ratio,2.52
CC12CC3CC(C)(C1)CC(NC(=O)Nc1ccc(C(=O)N4CCC[C@H](C(N)=O)C4)cc1F)(C3)C2,equilibrium dialysis,"Sprague-Dawley rat, plasma",,,unbound fraction,0.114
O=C(O)C1CN(Cc2ccc(-c3noc(-c4ccc(OCC[18F])c(C(F)(F)F)c4)n3)cc2)C1,,C57BL/6 mouse LPS-treated,60 min post-injection,reference: sham mice,liver uptake,increased
CCN(CC)c1ccc2c(-c3ccccc3C(=O)OCCOCCOCC[18F])c3ccc(=[N+](CC)CC)cc-3oc2c1,microPET,"rat, liver","dose not given, 5 min post injection",,radioactivity concentration,15 ± 2 kBq/cm³
CC(C)C[C@@H](NC(=O)[C@H](NC(=O)[C@H]1CCCN1)[C@H](C)O)C(=O)N[C@H](Cc1c[nH]cn1)C(=O)N[C@@H](C(=O)N[C@H](Cc1c[nH]cn1)C(=O)N[C@H](CC(N)=O)C(=O)N[C@H](CCCNC(=N)N)C(=O)N[C@H](CCCNC(=N)N)C(=O)N[C@H](CCCNC(=N)N)C(=O)N[C@H](CCCNC(=N)N)C(=O)N[C@H](CCCNC(=N)N)C(N)=O)[C@H](C)O,,"Beagle dog, plasma","intravenous, 3 mg/kg, single dose",,total clearance,1.16 mL/min/kg
NC(=O)c1ccc(C(=O)NOCc2ccc(Sc3cccc(Cl)c3)c(C(F)(F)F)c2)cc1,,"male ICR mouse, plasma","intravenous, 10 mg/kg",,AUC(0-t),14600 ng·h/mL
OC(CN1CCC2(CC1)CC(O)c1ccc3ccccc3c1O2)c1ccc(F)c(F)c1 (stereo not drawn),metabolic stability,"mouse, liver microsomes",1 h,,compound remaining,16%
CC=C1C(OC2OC(CO)C(O)C(O)C2O)OC=C(C(=O)OC)C1CC(=O)OCC1OC(OCCc2ccc(O)cc2)C(O)C(O)C1O (stereo not drawn),,"tumour-bearing BALB/c mouse, plasma","oral, 109.2 mg/kg",,t1/2,27.1 min
C=C(c1cc(F)c(C(=O)O)c(F)c1)c1cc2c(cc1C)C(C)(C)CCC2(C)C,,"Sprague-Dawley rat, male, plasma","oral, 100 mg/kg, 12 h, sesame oil vehicle",,HDL level,46 ± 12.1 mg/dL
Cc1ccc(-c2ccc(-c3cc4sccc4o3)cn2)nc1,,CHCl3,together with: quinine bisulfate reference,,fluorescence quantum yield,0.44
C1=C(c2cc3c(Nc4ccc5scnc5c4)ncnc3s2)CCSC1,,"BALB/c mouse, plasma","oral, 10 mg/kg, 2 h",,concentration,4.39 ng/mL
CCCC[C@@H]1NC(=O)[C@@H](NC(=O)[C@H](CCC(=O)O)NC(=O)CNC(=O)CN2CCN(CC(=O)O)CCN(CC(=O)O)CCN(CC(=O)O)CC2)CCCCNC(=O)C[C@@H](C(N)=O)NC(=O)[C@H](C(C)C)NC(=O)[C@@H]2CCCN2C(=O)[C@H](CCCNC(=N)N)NC(=O)CNC(=O)[C@H](Cc2c[nH]c3ccccc23)NC(=O)[C@H](CCCNC(=N)N)NC(=O)[C@@H](Cc2ccccc2)NC(=O)[C@H](Cc2c[nH]cn2)NC(=O)[C@H](CCC(=O)O)NC1=O [gallium-67 labelled],,C57 mice with B16/F1 melanoma,"intravenous, 0.037 MBq/mouse, 2 h",reference: tumour over blood,tumour to blood ratio,259
O=C([O][Ti+2][O]C(=O)c1ccc(P(c2ccccc2)c2ccccc2)cc1)c1ccc(P(c2ccccc2)c2ccccc2)cc1.[Cl][Au].[Cl][Au].c1cc[cH-]c1.c1cc[cH-]c1,"ICP-MS, item: gold","NOD.CB17-Prkdc scid/J mice, blood","7.5 mg/kg every 48 h, 6 h after last dose",,blood concentration,24.1 ± 2.6 µg/mL
CC12N3Cc4c(c(OCCCS(=O)(=O)[O-])c5ccccc5c4OCCCS(=O)(=O)[O-])CN1C(=O)N1CN4C(=O)N5Cc6c(c(OCCCS(=O)(=O)[O-])c7ccccc7c6OCCCS(=O)(=O)[O-])CN6C(=O)N(CN(C3=O)C12C)C4(C)C65C.[Na+].[Na+].[Na+].[Na+] (stereo not drawn),,,"pD 7.4, together with: camptothecin",,phase solubility slope,0.087 ± 0.0012
CCC/C(=C\C1=C(F)C(=O)c2ccccc2C1=O)C(=O)N(CC)CC,,mouse plasma,"1 µM, 37 °C",,t1/2,> 9900 min

# Some of these lines once more:
Structure (SMILES),assay,system,setting,scale,quantity,value
Brc1ccc(Nc2nc(NN=Cc3c[nH]c4ccccc34)nc(N3CCOCC3)n2)cc1,,human liver microsomes,,,CLint,0 mL/min/g protein
CCC/C(=C\C1=C(F)C(=O)c2ccccc2C1=O)C(=O)N(CC)CC,,mouse plasma,"1 µM, 37 °C",,t1/2,> 9900 min
[11CH3]c1ccc2nc(C3CCC3)n(-c3ccc4[nH]ncc4c3)c2n1,extrapolated from mouse biodistribution,"human male, osteogenic cells",,,absorbed dose,2.8 µSv/MBq
OC(CN1CCC2(CC1)CC(O)c1ccc3ccccc3c1O2)c1ccc(F)c(F)c1 (stereo not drawn),metabolic stability,"mouse, liver microsomes",1 h,,compound remaining,16%
